Published values gathered from unrelated publications.
Parts stem from different laboratories: compare values within a part only.
Sequence of UniProt P21709 (whole entry, looked up): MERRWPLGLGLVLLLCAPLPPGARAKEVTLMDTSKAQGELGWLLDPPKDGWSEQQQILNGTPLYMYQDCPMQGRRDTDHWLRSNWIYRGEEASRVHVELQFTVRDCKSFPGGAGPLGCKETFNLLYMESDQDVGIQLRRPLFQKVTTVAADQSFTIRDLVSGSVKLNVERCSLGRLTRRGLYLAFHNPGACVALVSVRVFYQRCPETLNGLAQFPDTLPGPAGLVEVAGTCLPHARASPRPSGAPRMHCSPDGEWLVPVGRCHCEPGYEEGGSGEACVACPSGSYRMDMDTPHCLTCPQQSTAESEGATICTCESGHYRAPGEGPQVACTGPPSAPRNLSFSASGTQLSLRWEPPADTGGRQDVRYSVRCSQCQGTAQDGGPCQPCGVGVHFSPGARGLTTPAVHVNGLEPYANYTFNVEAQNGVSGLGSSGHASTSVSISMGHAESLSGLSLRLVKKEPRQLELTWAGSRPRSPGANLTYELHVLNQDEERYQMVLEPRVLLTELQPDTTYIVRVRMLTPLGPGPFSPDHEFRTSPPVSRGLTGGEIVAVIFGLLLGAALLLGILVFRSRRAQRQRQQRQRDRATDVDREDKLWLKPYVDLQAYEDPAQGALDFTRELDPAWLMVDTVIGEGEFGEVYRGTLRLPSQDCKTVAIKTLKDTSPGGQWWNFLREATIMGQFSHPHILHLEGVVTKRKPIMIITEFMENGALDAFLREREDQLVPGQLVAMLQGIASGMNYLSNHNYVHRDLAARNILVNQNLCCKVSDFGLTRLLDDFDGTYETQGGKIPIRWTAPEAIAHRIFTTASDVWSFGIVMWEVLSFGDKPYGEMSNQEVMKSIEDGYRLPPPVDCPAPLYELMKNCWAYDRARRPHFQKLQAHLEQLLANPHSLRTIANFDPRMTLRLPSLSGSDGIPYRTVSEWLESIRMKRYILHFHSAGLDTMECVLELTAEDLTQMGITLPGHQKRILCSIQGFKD
Sequence of UniProt Q16566 (whole entry, looked up): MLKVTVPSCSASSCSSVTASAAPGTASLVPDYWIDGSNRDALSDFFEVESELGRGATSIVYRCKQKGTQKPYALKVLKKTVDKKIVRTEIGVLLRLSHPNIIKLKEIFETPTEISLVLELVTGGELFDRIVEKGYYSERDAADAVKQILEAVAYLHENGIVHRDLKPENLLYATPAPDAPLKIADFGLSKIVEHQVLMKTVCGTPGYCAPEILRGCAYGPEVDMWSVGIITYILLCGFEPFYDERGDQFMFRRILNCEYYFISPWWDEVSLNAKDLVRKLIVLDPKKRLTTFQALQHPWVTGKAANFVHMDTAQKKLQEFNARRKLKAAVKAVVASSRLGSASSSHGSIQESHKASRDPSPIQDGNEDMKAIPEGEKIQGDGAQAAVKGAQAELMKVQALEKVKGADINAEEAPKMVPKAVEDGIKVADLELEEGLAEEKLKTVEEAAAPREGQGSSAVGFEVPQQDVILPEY
Sequence of UniProt P37023 (whole entry, looked up): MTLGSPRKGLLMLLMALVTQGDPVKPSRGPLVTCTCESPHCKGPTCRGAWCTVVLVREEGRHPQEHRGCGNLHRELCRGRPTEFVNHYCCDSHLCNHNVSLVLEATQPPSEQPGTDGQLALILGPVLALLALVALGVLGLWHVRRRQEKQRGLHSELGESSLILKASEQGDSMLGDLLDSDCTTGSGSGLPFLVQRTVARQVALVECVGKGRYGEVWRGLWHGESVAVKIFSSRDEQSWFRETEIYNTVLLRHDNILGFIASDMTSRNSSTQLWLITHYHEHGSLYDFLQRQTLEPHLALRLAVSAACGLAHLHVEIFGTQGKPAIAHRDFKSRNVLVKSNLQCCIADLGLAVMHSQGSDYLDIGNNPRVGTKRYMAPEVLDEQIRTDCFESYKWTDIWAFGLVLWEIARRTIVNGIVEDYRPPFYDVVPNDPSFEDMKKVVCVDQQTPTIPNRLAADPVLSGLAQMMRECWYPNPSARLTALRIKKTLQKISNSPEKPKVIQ
Sequence of UniProt P49760 (whole entry, looked up): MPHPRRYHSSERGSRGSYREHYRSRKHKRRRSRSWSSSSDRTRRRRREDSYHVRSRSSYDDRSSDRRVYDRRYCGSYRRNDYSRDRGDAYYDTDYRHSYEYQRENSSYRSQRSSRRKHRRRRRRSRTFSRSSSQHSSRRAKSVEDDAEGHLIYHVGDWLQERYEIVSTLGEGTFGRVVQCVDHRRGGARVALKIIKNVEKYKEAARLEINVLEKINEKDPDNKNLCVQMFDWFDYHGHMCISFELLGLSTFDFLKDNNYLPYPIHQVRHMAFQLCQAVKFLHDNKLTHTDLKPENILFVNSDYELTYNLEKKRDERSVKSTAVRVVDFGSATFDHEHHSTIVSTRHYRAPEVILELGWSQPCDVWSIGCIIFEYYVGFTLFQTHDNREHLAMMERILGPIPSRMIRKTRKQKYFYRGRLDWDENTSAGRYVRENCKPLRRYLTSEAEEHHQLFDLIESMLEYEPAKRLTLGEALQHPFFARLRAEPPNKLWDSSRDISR
Sequence of UniProt P48730 (whole entry, looked up): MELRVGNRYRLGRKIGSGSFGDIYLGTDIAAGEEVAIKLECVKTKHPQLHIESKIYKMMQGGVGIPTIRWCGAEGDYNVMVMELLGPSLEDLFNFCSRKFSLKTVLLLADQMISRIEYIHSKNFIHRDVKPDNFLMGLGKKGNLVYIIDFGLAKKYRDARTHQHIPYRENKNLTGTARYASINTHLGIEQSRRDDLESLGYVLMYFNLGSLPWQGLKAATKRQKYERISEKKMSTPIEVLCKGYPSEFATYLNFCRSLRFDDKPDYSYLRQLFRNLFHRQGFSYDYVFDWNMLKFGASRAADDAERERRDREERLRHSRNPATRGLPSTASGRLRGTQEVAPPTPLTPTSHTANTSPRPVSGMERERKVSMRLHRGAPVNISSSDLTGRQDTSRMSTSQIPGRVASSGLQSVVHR
Sequence of UniProt Q96SB4 (whole entry, looked up): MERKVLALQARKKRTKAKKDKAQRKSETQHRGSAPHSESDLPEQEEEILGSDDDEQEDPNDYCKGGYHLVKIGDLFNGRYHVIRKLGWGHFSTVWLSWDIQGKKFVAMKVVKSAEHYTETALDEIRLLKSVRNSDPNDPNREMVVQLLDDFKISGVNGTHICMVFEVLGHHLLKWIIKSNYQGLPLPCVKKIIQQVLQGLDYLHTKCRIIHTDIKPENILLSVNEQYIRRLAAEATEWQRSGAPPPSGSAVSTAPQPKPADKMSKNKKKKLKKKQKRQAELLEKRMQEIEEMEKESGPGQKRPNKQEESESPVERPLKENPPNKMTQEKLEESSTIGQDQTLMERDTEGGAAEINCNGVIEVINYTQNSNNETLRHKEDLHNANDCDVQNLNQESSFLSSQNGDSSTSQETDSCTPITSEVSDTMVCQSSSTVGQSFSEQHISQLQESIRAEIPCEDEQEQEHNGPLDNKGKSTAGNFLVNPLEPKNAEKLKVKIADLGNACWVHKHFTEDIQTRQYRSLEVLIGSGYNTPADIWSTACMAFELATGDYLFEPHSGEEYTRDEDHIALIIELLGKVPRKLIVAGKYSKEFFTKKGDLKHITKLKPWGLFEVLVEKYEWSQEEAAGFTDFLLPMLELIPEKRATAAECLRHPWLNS
Sequence of UniProt O15146 (whole entry, looked up): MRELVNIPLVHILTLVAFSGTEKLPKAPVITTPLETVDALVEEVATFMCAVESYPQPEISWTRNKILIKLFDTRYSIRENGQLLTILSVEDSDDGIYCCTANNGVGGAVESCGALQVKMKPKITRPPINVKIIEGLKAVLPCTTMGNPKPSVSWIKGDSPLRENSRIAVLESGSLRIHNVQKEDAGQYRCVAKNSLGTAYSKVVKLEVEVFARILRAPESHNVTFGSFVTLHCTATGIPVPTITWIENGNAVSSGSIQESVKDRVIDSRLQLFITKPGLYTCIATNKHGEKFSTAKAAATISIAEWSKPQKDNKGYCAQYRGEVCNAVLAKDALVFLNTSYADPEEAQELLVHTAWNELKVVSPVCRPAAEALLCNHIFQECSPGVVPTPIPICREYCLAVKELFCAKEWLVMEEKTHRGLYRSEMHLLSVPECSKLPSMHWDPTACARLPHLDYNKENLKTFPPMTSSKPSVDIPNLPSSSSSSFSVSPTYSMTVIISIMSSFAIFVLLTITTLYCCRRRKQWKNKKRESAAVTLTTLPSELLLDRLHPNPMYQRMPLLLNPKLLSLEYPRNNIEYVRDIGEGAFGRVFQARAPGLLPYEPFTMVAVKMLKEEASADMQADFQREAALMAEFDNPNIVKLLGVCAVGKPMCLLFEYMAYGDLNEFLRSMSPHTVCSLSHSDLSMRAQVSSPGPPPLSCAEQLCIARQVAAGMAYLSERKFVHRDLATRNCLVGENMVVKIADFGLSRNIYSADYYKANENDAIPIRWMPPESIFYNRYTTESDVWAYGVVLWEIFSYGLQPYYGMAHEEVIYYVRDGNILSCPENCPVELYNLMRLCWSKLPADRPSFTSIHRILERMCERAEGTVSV
Sequence of UniProt P07947 (whole entry, looked up): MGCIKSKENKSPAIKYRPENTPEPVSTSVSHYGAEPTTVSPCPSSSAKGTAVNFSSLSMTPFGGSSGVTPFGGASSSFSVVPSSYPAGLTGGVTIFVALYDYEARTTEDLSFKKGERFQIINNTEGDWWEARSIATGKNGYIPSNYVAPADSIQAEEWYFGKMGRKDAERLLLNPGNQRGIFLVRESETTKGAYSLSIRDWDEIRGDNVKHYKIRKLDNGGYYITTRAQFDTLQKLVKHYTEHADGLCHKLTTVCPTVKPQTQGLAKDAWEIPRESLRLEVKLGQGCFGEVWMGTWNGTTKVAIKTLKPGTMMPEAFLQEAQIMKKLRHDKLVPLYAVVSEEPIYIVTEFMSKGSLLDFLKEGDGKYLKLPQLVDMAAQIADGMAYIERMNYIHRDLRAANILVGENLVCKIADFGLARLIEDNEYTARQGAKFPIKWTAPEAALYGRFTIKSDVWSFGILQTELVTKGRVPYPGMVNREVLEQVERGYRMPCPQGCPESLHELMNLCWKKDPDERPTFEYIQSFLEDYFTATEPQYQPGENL

Sample 1 — effect on: enzyme activity; mode: inhibitor; tested at: 0.5 µM; baseline: control
Structure (SMILES): Nc1[nH]nc2nnc(-c3c(-c4ccccc4)nn4ccccc34)cc12
For MUSK (Homo sapiens, UniProt O15146): remaining activity read 96.8%.
The remaining activity was 96.1% (BRSK2 (Homo sapiens, UniProt Q8IWQ3)).
It gave 105% for remaining activity (ERBB2 (Homo sapiens, UniProt P04626)).
It gave 106% for remaining activity (ACVRL1 (Homo sapiens, UniProt P37023)).
The remaining activity was 91.1% (YES1 (Homo sapiens, UniProt P07947)).
The remaining activity was 97.1% (JAK2 (Homo sapiens, UniProt O60674)).
For RPS6KA3 (Homo sapiens, UniProt P51812): remaining activity read 98.7%.
The remaining activity was 63.2% (CSNK1D (Homo sapiens, UniProt P48730)).
The remaining activity was 108% (CLK1 (Homo sapiens, UniProt P49759)).
It gave 102% for remaining activity (IGF1R (Homo sapiens, UniProt P08069)).
SRPK1 (Homo sapiens, UniProt Q96SB4) — remaining activity: 83.7%.
It gave 102% for remaining activity (MELK (Homo sapiens, UniProt Q14680)).
It gave 80.9% for remaining activity (CSNK1E (Homo sapiens, UniProt P49674)).

Sample 2 — method: protein-binding microarray; form: hairpin DNA; matrix: in vitro; tested at: not given; baseline: not given; direction: higher = stronger binding
Target: Runt-related transcription factor 1, full length (RUNX1, Homo sapiens, UniProt Q01196-8, residues 1-480)
Notes: whole hairpin DNA, median over replicate spots
The median fluorescence of `GAGGCCTGTTGCGGTTCGCCTCCTGGCGAACCGCAACAGGCCTCACACTC (5mC at 17)` is reported as 3590 a.u.
For `GAGGCCCGTTGTGGTTGGCCTCCTGGCCAACCACAACGGGCCTCACACTC (5mC at 7 37)`, the median fluorescence was 3090 a.u.
The median fluorescence of `GAGGCCCGTTGTGGTTGGCCTCCTGGCCAACCACAACGGGCCTCACACTC` is reported as 3230 a.u.
With `CTCAGTTCTCGGGGCTGGACTCCTGTCCAGCCCCGAGAACTGAGACACTC` the median fluorescence was 1720 a.u.
`GAGGCCTCTTGCGGTTGGCCTCCTGGCCAACCGCAAGAGGCCTCACACTC` gave a median fluorescence of 5870 a.u.
`GAGGCCTGTCGCGGTTGGCCTCCTGGCCAACCGCGACAGGCCTCACACTC (5mC at 10 32 34)` gave a median fluorescence of 1950 a.u.
The median fluorescence of `CTCAGTTCTGTGGGCTGGACTCCTGTCCAGCCCACAGAACTGAGACACTC` is reported as 1940 a.u.
`GAGGCCTGTTGCGCTTGGCCTCCTGGCCAAGCGCAACAGGCCTCACACTC` has a median fluorescence of 1660 a.u.

Sample 3 — effect on: cell-free assay; method: competition with immobilised ligand; tested at: 1 µM
Structure (SMILES): O=C1NC(c2ccccn2)Sc2ccccc21 (stereo not shown)
It gave 71% for remaining binding (EPHB2 (Homo sapiens, UniProt P29323)).
CAMK4 (Homo sapiens, UniProt Q16566) — remaining binding: 72%.
The remaining binding was 100% (EPHA1 (Homo sapiens, UniProt P21709)).
For FLT3 (Homo sapiens, UniProt P36888, ITD): remaining binding read 100%.
It gave 92% for remaining binding (DSTYK (Homo sapiens, UniProt Q6XUX3)).
For CLK2 (Homo sapiens, UniProt P49760): remaining binding read 95%.
The remaining binding was 64% (RET (Homo sapiens, UniProt P07949, M918T)).
It gave 75% for remaining binding (INSRR (Homo sapiens, UniProt P14616)).
Tyrosine-protein kinase JAK3, JH1 (JAK3, Homo sapiens, UniProt P52333) — remaining binding: 100%.

Further values, each from its own experiment
CCOC(=O)[C@@H]1CSCC(=O)N[C@H](CC)C(=O)N(C)[C@@H](C)C(=O)N[C@@H](CC(C)C)C(=O)N2CCC[C@H]2C(=O)N(CC(C)C)CC(=O)N[C@H](CC(C)C)C(=O)N(C)[C@H](C)C(=O)N[C@@H](CC(C)C)C(=O)N1C has a logD of 0.569 (hydrocarbon/water).

Repeated from above (sample 2):
The median fluorescence of `GAGGCCCGTTGTGGTTGGCCTCCTGGCCAACCACAACGGGCCTCACACTC` is reported as 3230 a.u.
With `CTCAGTTCTCGGGGCTGGACTCCTGTCCAGCCCCGAGAACTGAGACACTC` the median fluorescence was 1720 a.u.
